Measurements of several laboratories.
Lines come from different studies, so protocols differ. Numbers after ± are the reported error.
Organism: Escherichia coli

Compound = CCCCCCCCCCCN1C(=O)/C(=N\NC(=N)N)c2cc(C)ccc21; assay = microbial growth, broth dilution; conditions = 18 h; MIC = 48 µg/mL
Compound = CCn1cc(/C=C/c2sc3ccccc3[n+]2CC)c2ccccc21; system = 780, Mueller-Hinton broth; MIC = 16 ± 0.001 µg/mL
Compound = COc1c(CC=C(C)C)c(O)cc2c1[C@@H]1Oc3c(ccc(O)c3CC=C(C)C)[C@@H]1CO2; system = TISTR 780; MIC = 128 µg/mL
Compound = CCCCCCCCCC(=O)NCCCC[C@H](NC(=O)[C@H](CC(C)C)NC(=O)[C@H](CCCCN)NC(=O)[C@H](CCCCNC(=O)[C@H](CC(C)C)NC(=O)[C@H](CCN)NC(=O)[C@H](CCCCNC(=O)[C@H](Cc1ccccc1)NC(=O)[C@@H](N)CCCN)NC(=O)[C@H](Cc1ccccc1)NC(=O)[C@@H](N)CCCN)NC(=O)[C@H](CC(C)C)NC(=O)[C@H](CCN)NC(=O)[C@H](CCCCNC(=O)[C@H](Cc1ccccc1)NC(=O)[C@@H](N)CCCN)NC(=O)[C@H](Cc1ccccc1)NC(=O)[C@@H](N)CCCN)C(N)=O; assay = broth microdilution; system = W3110; conditions = 37 °C; MIC = 4 µg/mL
Compound = CSCC[C@H](NC(=O)[C@H](CCCNC(=N)N)NC(=O)[C@H](Cc1c[nH]c2ccccc12)NC(=O)[C@H](CCC(N)=O)NC(=O)[C@H](Cc1c[nH]c2ccccc12)NC(=O)[C@H](CCCNC(=N)N)NC(=O)[C@H](CCCNC(=N)N)NC(=O)[C@H](C)NC(=O)[C@H](CCCCN)NC(=O)[C@@H](N)Cc1ccccc1)C(=O)N[C@@H](CCCCN)C(=O)N[C@@H](CCCCN)C(=O)N[C@@H](CC(C)C)C(=O)NCC(=O)N[C@@H](C)C(=O)NCCCC[C@H](NC(=O)[C@H](C)NC(=O)CNC(=O)[C@H](CC(C)C)NC(=O)[C@H](CCCCN)NC(=O)[C@H](CCCCN)NC(=O)[C@H](CCSC)NC(=O)[C@H](CCCNC(=N)N)NC(=O)[C@H](Cc1c[nH]c2ccccc12)NC(=O)[C@H](CCC(N)=O)NC(=O)[C@H](Cc1c[nH]c2ccccc12)NC(=O)[C@H](CCCNC(=N)N)NC(=O)[C@H](CCCNC(=N)N)NC(=O)[C@H](C)NC(=O)[C@H](CCCCN)NC(=O)[C@@H](N)Cc1ccccc1)C(=O)NCCCCCC(N)=O; assay = broth microdilution; system = ATCC 43827; conditions = 24 h, 37 °C; MIC = 12 µM
Compound = COc1ccc2ccc3c(c2c1)C=[N+]1C2CCCCC2[N+]2=Cc4c(OC)cccc4[O][Au-]21[O]3.F[P-](F)(F)(F)(F)F (centres unmarked); assay = bacterial growth, broth microdilution; system = carbapenem-resistant; conditions = 24 h; MIC = > 20 µM
Compound = CCN(CC)CCCN1/C(=C/c2cc[n+](C)c3ccccc23)Sc2ccccc21; assay = microbial growth, broth dilution; system = ATCC 8739, ATCC8739; MIC = 8 µg/mL
Compound = CN[C@@H]1[C@H](O)[C@H](NC)[C@H]2O[C@]3(O)[C@H](O[C@@H]2[C@H]1O)O[C@H](C)C[C@@]3(O)CNCCc1ccccc1; assay = microbial growth; system = K12; MIC = 12.5 µg/mL
Compound = CO[C@H]1[C@H](O)[C@@H](N)[C@@H](O[C@H]2[C@H](O[C@@H]3O[C@H](CO)[C@@H](O[C@H]4O[C@@H](CN)[C@@H](O)[C@H](O)[C@H]4N)[C@H]3O)[C@@H](O)[C@H](N)C[C@@H]2N)O[C@@H]1CO; assay = broth microdilution; system = clinical isolate AG 002; MIC = ≥ 128 µg/mL
Compound = CCn1cc(C(=O)NCCNCCO)c(=O)c2cc(OCc3ccc(C(C)(C)C)cc3)c(Cl)cc21; system = ATCC 25922; scale = ≥80% growth inhibition; MIC = < 0.25 µg/mL
Compound = COc1ccc2ccc3c(c2c1)C=[N+]1C2CCCCC2[N+]2=Cc4cc(C(C)(C)C)ccc4[O][Au-]21[O]3.F[P-](F)(F)(F)(F)F (centres unmarked); assay = bacterial growth, broth microdilution; system = carbapenem-resistant; conditions = 24 h; MIC = > 20 µM
Compound = NC(=O)N1CCc2cc(S(=O)(=O)N3CCN(c4cc(C(F)(F)F)cc(Cl)n4)CC3)ccc21; assay = microbial growth, broth dilution; system = 25922; conditions = 22 h; MIC = 13 µg/mL
Compound = COc1ccc(NC(=O)C2C(=O)C(c3ccccc3)c3ccc4c(c32)C(=O)c2ccccc2C4=O)cc1 (centres unmarked); assay = microbial growth; MIC = > 100 µg/mL
Compound = CC(C)C[C@H](NC(=O)[C@H](CC(C)C)NC(=O)[C@H](CCCCN)NC(=O)[C@H](CC(C)C)NC(=O)[C@H](CC(C)C)NC(=O)[C@H](CCCCN)NC(=O)[C@H](CCCCN)NC(=O)[C@H](CC(C)C)NC(=O)[C@H](CC(C)C)NC(=O)[C@H](CCCCN)NC(=O)[C@H](CCCCN)NC(=O)[C@H](CC(C)C)NC(=O)[C@H](CC(C)C)NC(=O)[C@H](CCCCN)NC(=O)[C@@H](N)CC(C)C)C(N)=O; system = ATCC 8937, RPMI medium; conditions = 24 h, 37 °C; MIC = 3.7 µM
Compound = NC[C@H]1OB(O)c2c(OCCO)cccc21; system = ATCC 25922; conditions = cation-adjusted Mueller-Hinton; MIC = 3.1 µM
Compound = CN1/C(=C/C=C/c2cc(-c3ccccc3)cc(-c3ccccc3)[o+]2)C(C)(C)c2ccccc21; assay = microbial growth, broth dilution; system = ATCC25922; MIC = 8 µg/mL
Compound = CCn1[c]([Au-]([Cl])([Cl])[Cl])[n+](CC)c2ccc(C(=O)OC)cc21; assay = broth dilution; system = DSM 1116; conditions = 20 h, 37 °C; MIC = 34.9 ± 8.6 µM
Compound = C/C(=N/NC(=N)N)c1nnn(-c2ccc(C#CC(C)(C)C)cc2)c1C; assay = microbial growth, broth dilution; system = BW25113; MIC = > 64 µg/mL
Compound = COc1ccc2ccc3c(c2c1)C=[N+]1C2CCCCC2[N+]2=Cc4ccc(C)cc4[O][Au-]21[O]3.F[P-](F)(F)(F)(F)F (centres unmarked); assay = bacterial growth, broth microdilution; system = carbapenem-resistant; conditions = 24 h; MIC = > 20 µM
Compound = CCCCc1ccc(N2C(=O)/C(=N\NC(=N)N)c3cc([N+](=O)[O-])ccc32)cc1; assay = microbial growth, broth dilution; conditions = 18 h; MIC = > 192 µg/mL
Compound = COc1ccc2ccc3c(c2c1)C=[N+]1C2CCCCC2[N+]2=Cc4c(F)cccc4[O][Au-]21[O]3.F[P-](F)(F)(F)(F)F (centres unmarked); assay = bacterial growth, broth microdilution; system = carbapenem-resistant clinical isolate; conditions = 24 h; MIC = > 20 µM
Compound = CC(C)=CCc1c(O)ccc2c1O[C@H]1c3cc4c(cc3OC[C@@H]21)OC(C)(C)C=C4; system = TISTR 780; MIC = 128 µg/mL
Compound = NC[C@H]1O[C@H](O[C@H]2[C@H](OCCCCCCCCCCCCn3cc(CNc4nc(NCc5cn(CCCCCCCCCCCCO[C@@H]6[C@@H](O)[C@H](N)C[C@H](N)[C@H]6O[C@H]6O[C@H](CN)[C@@H](O)C[C@H]6N)nn5)nc(NCc5cn(CCCCCCCCCCCCO[C@@H]6[C@@H](O)[C@H](N)C[C@H](N)[C@H]6O[C@H]6O[C@H](CN)[C@@H](O)C[C@H]6N)nn5)n4)nn3)[C@@H](O)[C@H](N)C[C@@H]2N)[C@H](N)C[C@@H]1O; assay = microbial growth, broth dilution; system = ATCC25922; MIC = 64 µg/mL
Compound = CCSC1COC(=O)N1/N=C/c1ccc([N+](=O)[O-])o1 (centres unmarked); assay = microbial growth, broth dilution; system = ATCC25922; conditions = 18 h; MIC = 50 µg/mL
Compound = COCO[C@H]1[C@H](O)[C@@H](N)[C@@H](O[C@H]2[C@H](O[C@@H]3O[C@H](CO)[C@@H](O[C@H]4O[C@@H](CN)[C@@H](O)[C@H](O)[C@H]4N)[C@H]3O)[C@@H](O)[C@H](N)C[C@@H]2N)O[C@@H]1CO; assay = broth microdilution; system = clinical isolate AG 003; MIC = 64 to 128 µg/mL
Compound = C/C(=N\Nc1nc(-c2ccc(Cl)cc2)cs1)c1ccc2c(c1)sc1nc(=O)c(C#N)cn12; assay = microbial growth, broth dilution; MIC = < 29 µg/mL
Compound = CC(C)SC1COC(=O)N1/N=C/c1ccc([N+](=O)[O-])o1 (centres unmarked); assay = microbial growth, broth dilution; system = ATCC25922; conditions = 18 h; MIC = > 50 µg/mL
Compound = CC1OCC2OC(OC3C(N)CC(N)C(O)C3OC3OC(CO)C(OC4OC(CN)C(O)C(O)C4N)C3O)C(N)C(O)C2O1 (centres unmarked); assay = broth microdilution; system = clinical isolate AG 003; MIC = 64 to 128 µg/mL
Compound = Oc1c(Cl)cc(Cl)c2cccnc12; assay = microbial growth, agar dilution; system = ATCC25922; MIC = 37.4 µM

For quick reference, copied from above:
Compound = NC(=O)N1CCc2cc(S(=O)(=O)N3CCN(c4cc(C(F)(F)F)cc(Cl)n4)CC3)ccc21; assay = microbial growth, broth dilution; system = 25922; conditions = 22 h; MIC = 13 µg/mL
Compound = COc1ccc(NC(=O)C2C(=O)C(c3ccccc3)c3ccc4c(c32)C(=O)c2ccccc2C4=O)cc1 (centres unmarked); assay = microbial growth; MIC = > 100 µg/mL
